Published values from different studies.
Each line is one published result; not all experiments were run side by side.
Cell line: L02
Observed: cell growth or viability

O=C(/C=C/c1ccccc1)OCCCC[P+](c1ccccc1)(c1ccccc1)c1ccccc1  IC50 (SRB; 48 h): 59.8 µM
COc1ccc2nc(Cl)c(-c3nc4cc(C)c(C)cc4[nH]3)cc2c1  IC50 (MTT; 48 h): > 100 µM
O=[N+]([O-])[O-].O=[N+]([O-])[O-].[Cu+2].[Cu+2].c1ccc(-c2nc(-c3ccc4c(c3)OCO4)n[n-]2)nc1.c1ccc(-c2nc(-c3ccc4c(c3)OCO4)n[n-]2)nc1  IC50 (MTT; 24 h): 3.96 µM
COc1cc(/C=C/C(=O)OCCCC[P+](c2ccccc2)(c2ccccc2)c2ccccc2)ccc1O  IC50 (SRB; 48 h): 50.7 µM
COc1ccc(-c2nnc(-c3ccccn3)[nH]2)cc1OC.COc1ccc(-c2nnc(-c3ccccn3)[nH]2)cc1OC.[Cu+2].[O-][Cl+3]([O-])([O-])[O-].[O-][Cl+3]([O-])([O-])[O-]  IC50 (MTT; 24 h): 94.2 µM
Clc1cc2nc(-c3cc4cc5c(cc4nc3Cl)OCO5)[nH]c2cc1Cl  IC50 (MTT; 48 h): > 100 µM
COc1cc2c(cc1C(C)(C)O)CCC1C(C)(C)c3nc(C)ncc3C[C@]21C (mixture of isomers)  IC50 (SRB; 24 h): > 200 µM
Fc1ccc2[nH]c(-c3cc4cc5c(cc4nc3Cl)OCO5)nc2c1  IC50 (MTT; 48 h): > 100 µM
[Cl][Cu][Cl].c1ccc(-c2nnc(-c3ccc4c(c3)OCO4)[nH]2)nc1  IC50 (MTT; 24 h): 5.54 µM
O=C(/C=C/c1ccc(O)cc1)OCCCC[P+](c1ccccc1)(c1ccccc1)c1ccccc1  IC50 (SRB; 48 h): 80.6 µM
C=C(C)[C@@H]1CC[C@]2(C(=O)OCO/N=[N+](\[O-])N3CCCC3)CC[C@]3(C)[C@H](CC[C@@H]4[C@@]5(C)CC[C@H](OC(C)=O)C(C)(C)[C@@H]5CC[C@]43C)[C@@H]12  IC50 (MTT; 72 h): 27.2 µM
Cc1cc2nc(-c3cc4cc5c(cc4nc3Cl)OCO5)[nH]c2cc1C  IC50 (MTT; 48 h): > 100 µM
COc1cc(/C=C/C(=O)NCCCCCCNC2=C3C[C@@H](C)C[C@H](OC)[C@H](O)[C@@H](C)/C=C(\C)[C@H](OC(N)=O)[C@@H](OC)/C=C\C=C(/C)C(=O)NC(=CC2=O)C3=O)ccc1O  IC50 (MTT; 72 h): 5.36 µM
COc1ccc(S(=O)(=O)Nc2ccc(CCCC(=O)O[C@H]3c4cc5c(cc4[C@@H](c4cc(OC)c(OC)c(OC)c4)[C@H]4C(=O)OC[C@@H]43)OCO5)cc2)cc1  IC50 (CCK-8; 24 h): > 100 µM
Cc1cc(CN2CCC(CCCCCCC(=O)NO)CC2)cc(C)c1-c1ncn(C)c1-c1ccc(C#N)c2ccccc12  IC50 (MTT; 72 h): > 10 µM

Excerpt of the above:
COc1ccc(S(=O)(=O)Nc2ccc(CCCC(=O)O[C@H]3c4cc5c(cc4[C@@H](c4cc(OC)c(OC)c(OC)c4)[C@H]4C(=O)OC[C@@H]43)OCO5)cc2)cc1  IC50 (CCK-8; 24 h): > 100 µM
